# Published values from different studies.
# Lines come from different studies, so protocols differ. ± marks the error that the study gave.
SMILES,assay,system,conditions,scale,endpoint,value
CC(=O)NCC(=O)NCC(=O)N[C@H](C(=O)N[C@@H](Cc1ccc(O)cc1)C(=O)N[C@@H](CO)C(=O)N[C@H]1CSSC[C@@H](C(=O)N[C@@H](CCCNC(=N)N)C(=O)N2CCC[C@H]2C(=O)N[C@@H](CCC(N)=O)C(=O)N[C@@H](CCCNC(=N)N)C(=O)NCC(=O)NCCC(=O)N[C@@H](CCCCNC(=O)CN(CC(=O)NCCCC[C@H](NC(=O)CCNC(=O)CNC(=O)[C@H](CCCNC(=N)N)NC(=O)[C@H](CCC(N)=O)NC(=O)[C@@H]2CCCN2C(=O)[C@H](CCCNC(=N)N)NC(=O)[C@@H]2CSSC[C@H](NC(=O)[C@H](CO)NC(=O)[C@H](Cc3ccc(O)cc3)NC(=O)[C@@H](NC(=O)CNC(=O)CNC(C)=O)[C@@H](C)O)C(=O)N[C@@H](Cc3c[nH]cn3)C(=O)N[C@@H](Cc3ccccc3)C(=O)NCC(=O)N[C@@H](C)C(=O)N[C@@H](CC(C)C)C(=O)N[C@@H]([C@@H](C)O)C(=O)N[C@@H](Cc3c[nH]c4ccccc34)C(=O)N[C@@H](C(C)C)C(=O)N2)C(N)=O)C(=O)CCN)C(N)=O)NC(=O)[C@H](C(C)C)NC(=O)[C@H](Cc2c[nH]c3ccccc23)NC(=O)[C@H]([C@@H](C)O)NC(=O)[C@H](CC(C)C)NC(=O)[C@H](C)NC(=O)CNC(=O)[C@H](Cc2ccccc2)NC(=O)[C@H](Cc2c[nH]cn2)NC1=O)[C@@H](C)O,MSD immunoassay,"BALB/c mice, healthy female, serum","subcutaneous, 0.08 mg/kg, 96 h, LLOQ 2.0 ng/mL",,serum concentration,not detected
CCN1[C@@H](C(=O)NC23CCC(C(=O)O)(CC2)CC3)[C@H](c2cccc(Cl)c2F)[C@]2(C(=O)Nc3cc(Cl)ccc32)C12CCCCC2,,patients with advanced solid tumours,"oral, dose not given, all doses",,grade ≥3 Leukopenia incidence,23.8%
C[C@]1(CO)Cc2ncn(-c3ccc(C#N)c(Cl)c3)c2C(=O)O1,refers to: involuntary muscle contractions,human,40 mg single dose,,subjects with drug-related TEAE,0%
CC(C)NCCCC[C@@H]1NC(=O)[C@H](Cc2ccc(O)cc2)NC(=O)[C@H](Cc2ccccc2)NC(=O)CC[C@H](C(=O)N[C@@H](CCCCNC(C)C)C(=O)N[C@@H](CCCCNC(=O)[C@H](CCC(=O)O)NC(=O)[C@H](CCC(=O)O)NC(=O)[C@H](CCC(=O)O)NC(=O)CN2CCN(CC(=O)O)CCN(CC(=O)O)CC2)C(N)=O)NC(=O)CNC(=O)[C@H](Cc2ccc3ccccc3c2)NC(=O)[C@@H](CCCNC(=N)N)NC1=O [fluorine-18 labelled],,"mouse, plasma","10 min, post injection",,intact parent fraction,97%
Cc1ccc(NC(=O)c2ccnc(C(F)(F)F)c2)cc1-c1cc(OCCO)nc(N2CCOCC2)c1,,human,"twice daily, single agent",,maximum tolerated dose,600 mg
O=C(Nc1ccc2c(c1)B(O)OC2)c1cccc(OCc2c(Cl)cccc2Cl)c1,PAMPA,pre-coated trilayer membrane,"200 µM, 5 h, pH 7.4, acceptor plate, PBS",,acceptor concentration,4.3 ± 0.6 µM
CC(C)CC(=O)OC[C@H]1O[C@@](C#N)(c2ccc3c(N)ncnn23)[C@H](O)[C@@H]1O,,Humans plasma,"5 µM, 30 min",,remaining compound,7.68 ± 0.3%
CCN1CCN(Cc2ccc(Nc3ncc(F)c(-c4cc(F)c5nc6n(c5c4)[C@H](C)CCC6)n3)nc2)CC1,Phase Ia dose escalation,patients with advanced solid tumours,"dose not given, monotherapy",reference: patients,TEAEs leading to dose interruption,25%
C[C@H]1C[C@@H](N2C(=N)N[C@](C)(c3cccc(NC(=O)c4cccc(C#N)c4)c3Cl)CC2=O)CCO1,,rat,"1000 mg/kg, every other day",,lymphocytes count change,42%
CCC[C@H]1CC[C@H](c2ccc(-c3ccc(F)cc3)cc2)CC1,,"rat, placenta","5000 ng/mL in perfusate, high dose, mixture of 21 LCMs",,median placental accumulation,190 ng/g
CN1CC[C@@H](c2c(O)cc(O)c3c(=O)cc(-c4ccc(C(F)(F)F)cc4Cl)oc23)[C@@H]1CO,refers to: Hypoalbuminemia,relapsed B-cell malignancies,"oral, 100 mg, grade 3-4, intermittent dosing",,patients with adverse event,0%
Clc1cc2c(cc1Cl)Oc1cc(Cl)c(Cl)cc1O2,"RNA-Seq, refers to: Cyp1b1","Sprague-Dawley rat, female, liver",10 µg/kg,reference: vehicle,mRNA fold change,335 fold
CCc1ccc(CC/C=C/c2ccc3c(c2)C(=O)CC3)cc1,,"Sprague-Dawley rat, female","oral, 30 mg/kg/day, 14 days",,APTT,14.3 s
O=C1[O][Pt]2([NH][C@@H]3CCCC[C@H]3[NH]2)[O]C1=O,,"mouse BALB/c, serum","intravenous, 9 mg/kg",,terminal half-life,32.5 h
COc1cc2c(Oc3ccc4[nH]c(C)cc4c3F)ccnc2cc1OCC1(N)CC1,,paediatric recurrent refractory sarcoma,8 mg/kg,,grade 1 or 2 AST elevation,13.3%
COc1ccc([C@@H](O)c2cc(-c3ncnc4cc(N5CCOCC5)ccc34)c(F)cc2Cl)nn1,,"patients, advanced solid tumours","oral, 300 mg twice daily, treatment-emergent, with: avelumab",,hypotension incidence,2%
COc1ncccc1-c1cnn2ccc(N3CCN(C(=O)OC(C)C)CC3)nc12,,"mouse, formalin test, brain","oral, 10 mg/kg, 60 min",,drug concentration,16 µM
Oc1c(Cl)cc2c(c1Cl)Oc1cc(Cl)c(Cl)cc1O2,,whole cow milk,20 nM nominal,,dose fraction in skim milk,43%
CO[C@H]1C[C@@H]2CC[C@@H](C)[C@@](O)(O2)C(=O)C(=O)N2CCCC[C@H]2C(=O)O[C@H]([C@H](C)C[C@@H]2CC[C@@H](OC(=O)NCCOCCOCCOCCOCCOCCOCCOCCOCCC(=O)N3CCc4cc(Cn5nc(-c6ccc7oc(N)nc7c6)c6c(N)ncnc65)ccc4C3)[C@H](OC)C2)C[C@@H](O)[C@H](C)/C=C(\C)[C@@H](O)[C@@H](OC)C(=O)[C@H](C)C[C@H](C)/C=C/C=C/C=C/1C,"phase 1 dose escalation, refers to: vomiting",advanced solid tumour patients,"intravenous, 10 mg weekly, any grade",,TRAE incidence,12.5%
CN1CCN(S(=O)(=O)c2cc([N+](=O)[O-])ccc2N(CCOS(C)(=O)=O)CCOS(C)(=O)=O)CC1,,"NSG mice female, plasma","intraperitoneal, 10 mg/kg, 0.75 h",,concentration,0.41 µM
CC(=O)c1c(C)c2cnc(Nc3ccc(C4CCN(CCS(C)(=O)=O)CC4)cn3)nc2n(C2CCCC2)c1=O,,"human, plasma","oral, 50 mg twice daily, day 1, single dose, with: letrozole",,AUC(0-inf),459 ng·h/mL
C[C@@H](NC(=O)N1C(=O)[C@H](Cc2ccnc(N)c2)[C@H]1C(=O)O)C1CCCCC1,,healthy adult Chinese volunteers,"continuous intravenous infusion, 0.6 mg/kg/h, 5-day infusion, CTCAE 5.0 grading",,drug-related abnormal liver function,12.5%
CCC[C@@](N)(CO)CCc1ccc(OCCCCCC(C)C)cc1,,"dog, male hounds, plasma","oral capsule, 20 mg/kg, median",,half-life,21.6 h
C[C@]1(O)C[C@@](N)(c2ccc(-c3nc4n(c3-c3ccccc3)COc3ccncc3-4)cc2)C1,,"human, advanced or metastatic solid tumours","dose not given, once-daily dose escalation total",,patients with grade ≥3 TEAE,88.9%
CCCCCCCC(=O)N[C@@H](CCCCN)C(=O)N[C@@H](CCCCN)C(=O)N[C@@H](C)C(=O)N[C@@H](CC(C)C)C(=O)N[C@@H](CCCCN)C(=O)N[C@@H](CC(C)C)C(=O)N[C@@H](C)C(=O)N[C@@H](CCCCN)C(=O)N[C@@H](CCCCN)C(=O)N1CCC[C@H]1C(=O)N[C@@H](CC(C)C)C(=O)N[C@@H](CCCCN)C(=O)N[C@@H](CC(C)C)C(=O)N[C@@H](CC(C)C)C(=O)N[C@@H](CCCCN)C(N)=O,,"mouse, whole blood","intravenous bolus, 1 mg/kg",,AUC(0-last),75 ± 15 ng·h/mL
O=C(Nc1ccccc1)C1CCN(C(=O)Oc2cccnc2)CC1,refers to: ear and labyrinth disorders,healthy women,"oral, 60 mg, 7 days",,subjects with adverse event,0%

# Repeated from above:
SMILES,assay,system,conditions,scale,endpoint,value
COc1ncccc1-c1cnn2ccc(N3CCN(C(=O)OC(C)C)CC3)nc12,,"mouse, formalin test, brain","oral, 10 mg/kg, 60 min",,drug concentration,16 µM
C[C@]1(O)C[C@@](N)(c2ccc(-c3nc4n(c3-c3ccccc3)COc3ccncc3-4)cc2)C1,,"human, advanced or metastatic solid tumours","dose not given, once-daily dose escalation total",,patients with grade ≥3 TEAE,88.9%
CCC[C@H]1CC[C@H](c2ccc(-c3ccc(F)cc3)cc2)CC1,,"rat, placenta","5000 ng/mL in perfusate, high dose, mixture of 21 LCMs",,median placental accumulation,190 ng/g
CN1CC[C@@H](c2c(O)cc(O)c3c(=O)cc(-c4ccc(C(F)(F)F)cc4Cl)oc23)[C@@H]1CO,refers to: Hypoalbuminemia,relapsed B-cell malignancies,"oral, 100 mg, grade 3-4, intermittent dosing",,patients with adverse event,0%
